# Assay results gathered from unrelated publications.
# Parts stem from different laboratories: compare values within a part only. Substitutions count along the parent as printed.

# Set 1
# Target: ABI1, truncated, D143A, DHFR fusion (Arabidopsis thaliana)
# Technique: DHFR PCA, deep sequencing
# Medium: yeast
# Setting: methotrexate growth selection, single substitutions
# With: (+)-ABA 200 µM
# Baseline: wild-type fitted maximum
# Reading: higher = stronger binding
# Starting sequence: PYL1, truncated, DHFR fusion (Arabidopsis thaliana); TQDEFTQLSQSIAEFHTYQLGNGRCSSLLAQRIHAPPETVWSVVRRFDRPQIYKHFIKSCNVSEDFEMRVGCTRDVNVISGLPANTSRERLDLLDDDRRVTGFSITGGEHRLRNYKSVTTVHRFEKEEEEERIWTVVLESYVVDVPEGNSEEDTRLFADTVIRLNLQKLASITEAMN
Variant,relative binding score
A35C,91.2%
S27A,92.6%
N85A,109%
E128I,99.6%
V44A,77.8%
V161T,36.8%
V100C,99.6%
V78K,7.98%
E131C,108%
N177F,104%
F157A,7.01%
S26K,90.6%
R99L,111%
L169C,29.3%
Q7K,96.1%
G108N,48%
I162K,19.4%
F103I,58%
L164K,90.9%
N149Q,55.7%
C60P,11.9%
R98L,102%

# Set 2
# Target: CCNB1, cyclin fold, Cln2 fusion (human)
# Technique: yeast growth competition, sequencing
# Medium: yeast
# Setting: strong parent motif
# Baseline: not given
# Reading: higher = stronger binding
# Starting sequence: PKN2 docking peptide (human); VSAVQKLDFSDTM; partner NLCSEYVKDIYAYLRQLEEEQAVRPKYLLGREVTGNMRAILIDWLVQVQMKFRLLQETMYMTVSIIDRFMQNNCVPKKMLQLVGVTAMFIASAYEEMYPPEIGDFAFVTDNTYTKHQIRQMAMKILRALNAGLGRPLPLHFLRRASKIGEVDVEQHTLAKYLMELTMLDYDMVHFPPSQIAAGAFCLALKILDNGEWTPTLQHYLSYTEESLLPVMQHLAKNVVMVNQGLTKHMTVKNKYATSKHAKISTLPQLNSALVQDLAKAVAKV
Variant,normalised enrichment score
D11M,1.02
A3K,0.284
S2H,1.01
D11A,1.06
V4P,0.294
L7H,0.0879
A3W,1.66
S10Y,1.46
K6D,-0.175
L7N,0.311
V1L,2.02
D11N,2.15
F9K,0.318
K6S,1.36
S10G,2.41
K6C,1.6
V1Q,2.55
V1S,2.1
T12R,1.62
D8W,1.4
S2Y,2.4
D8N,1.4
D8I,1.36
S2K,1.27
L7Y,0.957

# Set 3
# Target: Histone acetyltransferase KAT6A, winged helix 2, GST fusion (KAT6A, Homo sapiens, UniProt Q92794, residues 85-181)
# Technique: protein binding microarray
# Form: double-stranded DNA, one strand shown
# Medium: in vitro
# Concentration: not given
# Setting: 8-mer, flanks averaged, mean of 2 arrays, mostly near background
# Baseline: not given
# Reading: higher = stronger binding
# Construct (chain): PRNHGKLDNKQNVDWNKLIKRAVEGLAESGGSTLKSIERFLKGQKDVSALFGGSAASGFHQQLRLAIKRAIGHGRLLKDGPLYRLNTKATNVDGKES
Strand,E-score
AGAGAGAG,-0.145
AGAGCCAG,0.00667
GCTACACC,0.0182
ACAGTGCG,-0.111
CGGTACCA,-0.0402
ACAGTGGC,0.0299
CAATGAGA,-0.17
GGGCCCTA,-0.0324
ATCTGGGC,0.0275
CATGCGCC,0.108
AGGGACGC,0.00743
AGTTGATC,-0.0303
CATGGTAA,-0.154
AGCAGTGA,0.0957
AATAGCGT,-0.109
AAGCGATA,0.0683
AGCGTGCG,0.108
ACAATCTC,-0.177
GGCCAATA,-0.128
CCCTCTCG,0.0398
ACACCCTC,0.062
CTCTCACC,-0.0102
GGCGGGAA,-0.00269
GGTTATCA,-0.0426
GATAAATC,0.102

# Set 4
# Target: Sal-like protein 4, full length isoform A (SALL4, Homo sapiens, UniProt Q9UJQ4, residues 1-1053)
# UniProt Q9UJQ4, sequence (whole entry, looked up): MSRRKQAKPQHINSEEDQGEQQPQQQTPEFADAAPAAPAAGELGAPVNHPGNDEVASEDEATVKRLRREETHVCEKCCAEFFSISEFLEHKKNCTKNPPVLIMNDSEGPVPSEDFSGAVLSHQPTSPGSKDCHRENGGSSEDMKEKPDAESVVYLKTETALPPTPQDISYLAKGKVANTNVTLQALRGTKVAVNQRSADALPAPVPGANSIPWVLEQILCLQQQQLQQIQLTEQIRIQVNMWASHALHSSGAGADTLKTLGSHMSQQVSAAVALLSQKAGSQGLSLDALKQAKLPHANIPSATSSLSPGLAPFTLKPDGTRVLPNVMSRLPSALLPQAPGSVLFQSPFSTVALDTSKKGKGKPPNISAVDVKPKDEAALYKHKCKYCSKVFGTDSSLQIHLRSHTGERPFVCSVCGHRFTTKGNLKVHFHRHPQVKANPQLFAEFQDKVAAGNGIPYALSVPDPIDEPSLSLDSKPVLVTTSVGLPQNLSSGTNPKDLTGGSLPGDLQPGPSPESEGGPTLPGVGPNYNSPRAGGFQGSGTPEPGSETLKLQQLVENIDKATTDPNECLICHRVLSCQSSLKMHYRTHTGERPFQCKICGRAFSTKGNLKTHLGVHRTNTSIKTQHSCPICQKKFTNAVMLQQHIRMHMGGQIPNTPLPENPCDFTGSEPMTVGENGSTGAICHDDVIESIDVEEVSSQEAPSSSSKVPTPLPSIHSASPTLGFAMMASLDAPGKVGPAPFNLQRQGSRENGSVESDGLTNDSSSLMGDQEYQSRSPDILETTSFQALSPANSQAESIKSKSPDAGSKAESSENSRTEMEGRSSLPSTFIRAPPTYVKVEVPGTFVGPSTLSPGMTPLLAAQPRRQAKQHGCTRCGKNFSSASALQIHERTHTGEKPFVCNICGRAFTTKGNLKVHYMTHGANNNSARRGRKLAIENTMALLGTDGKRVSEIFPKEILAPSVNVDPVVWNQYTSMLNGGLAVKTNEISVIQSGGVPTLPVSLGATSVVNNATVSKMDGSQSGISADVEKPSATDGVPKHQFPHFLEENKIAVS
# Technique: universal PBM
# Form: double-stranded DNA, one strand shown
# Medium: in vitro
# Concentration: 600 nM
# Setting: 8-mer, flanks averaged, mean of replicates
# Reading: higher = stronger binding
Strand,E-score
CGCCCCCG,-0.381
TGCCTCAA,-0.0688
AAGGGTTG,0.0941
GGGGTGTA,-0.226
TATAAAGA,0.273
CATGCGCG,-0.304
AATGATCC,0.111
AAATACGC,0.0978
ATTTCACG,0.101
AGACGCAT,0.0163
AAAACAAT,0.29
ACCTGCCT,-0.186
AAAGACCC,-0.0415
CTATAGAG,0.105
AGTAAGTG,0.0353
AACCGTGA,-0.0532
ATCCCTGG,-0.215
AAGTTTCC,0.0941
ACGATTGC,0.0567
GTTCTAGA,0.0512
AGTTGCCA,-0.157
GACCAAGA,-0.135
CCCCAACG,-0.258
GAGGAGCC,-0.247
AAAACTGC,0.0234

# Some of these lines once more (set 2):
Variant,normalised enrichment score
D11N,2.15
F9K,0.318
K6S,1.36
S10G,2.41
K6C,1.6
V1Q,2.55
V1S,2.1
T12R,1.62
D8W,1.4
S2Y,2.4
D8N,1.4
